{"data": "Measured values pooled from the literature", "note": "Compare with care: the assays were run in different laboratories. Numbers after ± are the reported error."}
{"SMILES": "CN1CCN(c2ccc3nc(-c4c(N)c5c(F)cccc5[nH]c4=O)[nH]c3c2)CC1", "system": "patients, plasma", "conditions": "oral, 300 mg daily 5 days on 2 off, day 19, maximum, with: gemcitabine and capecitabine", "Cmax": "313 ng/mL"}
{"SMILES": "N[C@@H](CC(=O)N1CCn2c(nnc2C(F)(F)F)C1)Cc1cc(F)c(F)cc1F", "system": "healthy Korean subjects, plasma", "conditions": "oral, 100 mg single dose, ABCB1 G2677T/A TT", "Cmax": "466 ± 112 ng/mL"}
{"SMILES": "CC(C)(Sc1ccncc1-c1ccc(C#N)c2ccccc12)C(=O)O", "system": "male, plasma", "conditions": "oral, 15 mg, moderate renal impairment, fasted", "Cmax": "29 ng/mL"}
{"SMILES": "CCCN1CC(c2ccc(S(C)(=O)=O)cc2)=C(c2ccc(C)cc2)C1=O", "system": "healthy Chinese, elderly, plasma", "conditions": "oral, 100 mg", "Cmax": "15 ng/mL"}
{"SMILES": "CS(=O)(=O)n1cc2c(n1)CN([C@H]1CO[C@H](c3cc(F)ccc3F)[C@@H](N)C1)C2", "system": "healthy Japanese men, plasma", "conditions": "oral, 50 mg once weekly, day 1", "Cmax": "1080 nM"}
{"SMILES": "CC(C)(Sc1ccncc1-c1ccc(C#N)c2ccccc12)C(=O)O", "system": "healthy Japanese male subjects, plasma", "conditions": "oral, 2.5 mg single dose, day 1, fasted, geometric mean", "Cmax": "4.89 ng/mL"}
{"SMILES": "C[C@]12C=CC(=O)C=C1CC[C@@H]1[C@@H]2[C@@H](O)C[C@@]2(C)[C@H]1C[C@H]1O[C@@H](C3CCCCC3)O[C@]12C(=O)CO", "system": "children with asthma, serum", "conditions": "inhaled, 80 µg ciclesonide, day 7, HFA-MDI with spacer, steady state", "Cmax": "0.106 ± 0.006 ng/mL"}
{"SMILES": "C[C@@H](O)[C@H]1C(=O)N2C(C(=O)O)=C(S[C@@H]3CN[C@H](C(=O)N(C)C)C3)[C@H](C)[C@H]12", "system": "pig (Danish Landrace), plasma, free concentration", "conditions": "iv infusion, 1000 mg over 10 min, with: vancomycin co-administered", "Cmax": "67000 ng/mL"}
{"SMILES": "Nc1ncc(-c2cnn(CCO)c2)c2scc(-c3ccc(NC(=O)Nc4cccc(F)c4)cc3)c12", "system": "patient, plasma", "conditions": "oral, 320 mg twice weekly, day 1, trial", "Cmax": "1480 ± 890 ng/mL"}
{"SMILES": "CON", "assay": "LC-MS/MS", "system": "cancer patients, plasma", "conditions": "iv infusion, dose not given, 120 h, 16 cycles, with: oral temozolomide", "Cmax": "40.6 ng/mL"}
{"SMILES": "CNC(=O)c1cc(Oc2ccc(NC(=O)Nc3ccc(Cl)c(C(F)(F)F)c3)c(F)c2)ccn1", "system": "metastatic colorectal cancer patients, plasma", "conditions": "oral, 120 mg once daily, steady state, alone", "Cmax": "5300 ng/mL"}
{"SMILES": "COc1cc(OC)c(/C=C/S(=O)(=O)Cc2ccc(OC)c(NCC(=O)O)c2)c(OC)c1", "system": "cancer patients, phase I, plasma", "conditions": "oral, 560 mg twice daily, day 1 cycle 1", "Cmax": "4040 ± 2970 ng/mL"}
{"SMILES": "Cc1ccc(NC(=O)c2ccc(CN3CCN(C)CC3)cc2)cc1Nc1nccc(-c2cncc(-c3oncc3C)c2)n1", "system": "healthy volunteers, plasma", "conditions": "oral, 25.0 mg once daily, day 7, 7-day dosing, mean", "Cmax": "1770 ng/mL"}
{"SMILES": "Cc1ccc(Sc2ccccc2N2CCNCC2)c(C)c1", "system": "healthy men, plasma", "conditions": "oral, 5 mg once daily, fed, day 1", "Cmax": "1.8 ng/mL"}
{"note": "Excerpt of the above:"}
{"SMILES": "CNC(=O)c1cc(Oc2ccc(NC(=O)Nc3ccc(Cl)c(C(F)(F)F)c3)c(F)c2)ccn1", "system": "metastatic colorectal cancer patients, plasma", "conditions": "oral, 120 mg once daily, steady state, alone", "Cmax": "5300 ng/mL"}
{"SMILES": "COc1cc(OC)c(/C=C/S(=O)(=O)Cc2ccc(OC)c(NCC(=O)O)c2)c(OC)c1", "system": "cancer patients, phase I, plasma", "conditions": "oral, 560 mg twice daily, day 1 cycle 1", "Cmax": "4040 ± 2970 ng/mL"}
